Published values from different studies.
Lines come from different studies, so protocols differ. ± gives the spread as reported.
lasR: Transcriptional activator protein LasR (lasR, Pseudomonas aeruginosa, UniProt P25084)
KCNQ3/KCNQ2: Voltage-gated potassium channel, KQT; KCNQ2(Kv7.2)/KCNQ3(Kv7.3) (KCNQ3/KCNQ2, Homo sapiens, UniProt O43525+O43526)

SMILES = O=C(N[C@H]1CCOC1=O)c1ccc(-n2cc(-c3ccccc3)nn2)cc1; target = lasR; test = reporter gene, agonist; test system = Escherichia coli, DH5α pJN105L/pSC11; setting = 100 µM; how to read = reference: OdDHL at same concentration; quantity = activation; value = 0%
SMILES = C[C@@]1(O)CC[C@H]2[C@H](CC[C@@H]3[C@@H]2CC[C@]2(C)[C@@H](C(=O)Cn4cccn4)CC[C@@H]32)C1; target = Membrane progesterone receptor epsilon (Paqr9, Mus musculus, UniProt Q6TCG2); test = pPKA/PKA immunoblot; test system = MDA-MB-231 expressing Paqr9-GFP; setting = 30 nM, 20 min; how to read = reference: control; quantity = PKA activation; value = 98.2 ± 8.41%
SMILES = CC(C)C[C@H](NC(=O)CN)C(=O)NCC(=O)N[C@@H](CCCCN)C(=O)N[C@@H](CC(C)C)C(=O)N[C@@H](CC(C)C)C(=O)N[C@@H](Cc1c[nH]cn1)C(=O)N[C@@H](C)C(=O)N[C@@H](C)C(=O)N[C@@H](CCCCN)C(=O)N[C@@H](CCCCN)C(=O)N[C@@H](CC(C)C)C(=O)NCC(=O)N[C@@H](CCCCN)C(=O)N[C@@H](C)C(=O)N[C@@H](Cc1c[nH]c2ccccc12)C(=O)N[C@@H](CC(C)C)C(=O)NCC(=O)N[C@@H](CCC(=O)O)C(=O)N[C@@H](CC(C)C)C(=O)N[C@@H](CC(C)C)C(=O)N[C@@H](C)C(=O)N[C@@H](C)C(=O)O; target = POPC membrane; test = membrane binding, stopped-flow FRET; setting = mole fraction units, room temperature; quantity = binding free energy; value = -6.4 kcal/mol
SMILES = CC(=O)NC(Cc1ccc(Br)c(Cl)c1)C(=O)N[C@@H](C)C(=O)N1CCC[C@H]1C(=O)N1CCC[C@H]1C(=O)N[C@@H](CCC(=O)O)C(=O)N[C@@H](Cc1c[nH]cn1)C(=O)N[C@@H](CO)C(=O)N[C@H](C(=O)N[C@@H](C)C(N)=O)[C@@H](C)OP(=O)(O)O (stereo partly shown); target = MAP2K1 (Homo sapiens, UniProt Q02750); setting = 10 µM; quantity = inhibition; value = 4.15 ± 0.13%
SMILES = CC(=O)N[C@@H](CC(C)C)C(=O)N[C@@H](CCC(=O)O)C(=O)N[C@@H](Cc1c[nH]cn1)C(=O)N[C@@H](CC(=O)O)C(=O)Nc1ccc2c(C)cc(=O)oc2c1; target = Caspase-6 (CASP6, Homo sapiens, UniProt P55212); test = substrate cleavage, substrate, fluorogenic AMC release; setting = enzyme 0.25 activity units/µL; quantity = Vmax; value = 792 ± 16.7 RFU/min
SMILES = COc1ccc(NC(=O)Cn2c(=O)c3ccccc3n(CC(=O)Nc3cc([125I])c(OC)cc3OC)c2=O)cc1; target = Sphingosine 1-phosphate receptor 2 (Rattus norvegicus, UniProt P47752); test = in vitro autoradiography; test system = Sprague-Dawley rat, control, kidney sections; setting = dose not given; quantity = kidney binding; value = 72 PSL/mm²
SMILES = CCOc1cncc(-c2ccc(NC(=O)C3(c4ccnc(NS(=O)(=O)C5CC5)n4)CCOCC3)nc2)n1; target = Ctps1 (Mus musculus, UniProt P70698); test = enzyme activity; test system = mouse; how to read = reference: CTPS2 over target IC50; quantity = selectivity ratio; value = 140
SMILES = CC[C@H](C)[C@H](NC(=O)[C@H](Cc1c[nH]cn1)NC(=O)[C@H](CCCCNC(=O)[C@@H](NC(=O)[C@H](CCCCN)NC(=O)[C@H](Cc1ccccc1)NC(=O)[C@H](CCCCNC(=O)[C@H](CC(C)C)NC(=O)[C@@H]1CCCN1C(=O)[C@H](CCCCN)NC(=O)c1ccc(O[C@@H]2O[C@H](CO)[C@H](O)[C@H](O)[C@H]2O)cc1)NC(=O)[C@H](CC(C)C)NC(=O)[C@@H]1CCCN1C(=O)[C@H](CCCCN)NC(=O)c1ccc(O[C@@H]2O[C@H](CO)[C@H](O)[C@H](O)[C@H]2O)cc1)[C@@H](C)CC)NC(=O)[C@@H](NC(=O)[C@H](CCCCN)NC(=O)[C@H](Cc1ccccc1)NC(=O)[C@H](CCCCNC(=O)[C@H](CC(C)C)NC(=O)[C@@H]1CCCN1C(=O)[C@H](CCCCN)NC(=O)c1ccc(O[C@@H]2O[C@H](CO)[C@H](O)[C@H](O)[C@H]2O)cc1)NC(=O)[C@H](CC(C)C)NC(=O)[C@@H]1CCCN1C(=O)[C@H](CCCCN)NC(=O)c1ccc(O[C@@H]2O[C@H](CO)[C@H](O)[C@H](O)[C@H]2O)cc1)[C@@H](C)CC)C(N)=O; target = lecA (Pseudomonas aeruginosa, UniProt Q05097); test = ITC; setting = concentration not given, pH 7.5, 25 °C; quantity = binding enthalpy (ΔH); value = -12 ± 1.4 kcal/mol
SMILES = N#Cc1cccc(C(F)(F)F)c1; target = Amyloid-beta precursor protein, amyloid-beta 1-40 oligomers (APP, Homo sapiens, UniProt P05067); test = binding, STD NMR; setting = highest STD; quantity = STD NMR signal; value = 0%
SMILES = CN1C(CCc2ccccc2)CCC1CCc1ccccc1 (stereo not shown); target = Slc18a2 (Rattus norvegicus, UniProt Q01827); test = dopamine uptake; test system = rat striatal synaptic vesicles; setting = together with: [3H]dopamine; quantity = maximal inhibition; value = 100%
SMILES = COc1ccc(-c2coc3cc(OCCN4CCCCC4)ccc3c2=O)cc1; target = Ache (Rattus norvegicus, UniProt P37136); test = inhibitor, Ellman method; test system = rat; quantity = binding free energy; value = -9 kcal/mol
SMILES = CCN(Cc1ccccc1)C(=O)CCc1nc(CN2CCN(C(=O)Cc3ccc(OC)c(OC)c3)CC2)no1; target = KCNQ3/KCNQ2; test = potassium current, opener, whole-cell patch clamp; test system = CHO stable; setting = 300 nM, -10 mV; quantity = current density; value = 50.1 ± 7.05 pA/pF
SMILES = Cc1cc(C2=CCN(CC3OCCO3)CC2)cc([N+](=O)[O-])c1N; target = HTR2B (Homo sapiens, UniProt P41595); test = β-arrestin recruitment, agonist; quantity = Emax; value = 105%
SMILES = O=[N+]([O-])c1ccc(OP(=O)(O)O)cc1; target = Alkaline phosphatase PafA (pafA, Elizabethkingia meningoseptica, UniProt Q9KJX5, K162A); test = substrate; test system = Chryseobacterium meningosepticum; quantity = Km; value = 230 µM
SMILES = COc1cc2c(cc1OC)-c1c(OC)c(OC)cc3c1[C@H](C2)N(C)CC3; target = serotonin receptor-like protein (Schistosoma mansoni, UniProt A0A173FEI8); test = inhibitor, GloSensor cAMP; test system = HEK293 expressing target; setting = concentration not given; quantity = cAMP generation; value = inhibited
SMILES = COP(=O)(O)Oc1ccc([N+](=O)[O-])cc1; target = Alkaline phosphatase PafA (pafA, Elizabethkingia meningoseptica, UniProt Q9KJX5, T79S); test system = Chryseobacterium meningosepticum; setting = pH 8.0; how to read = reference: wild type over mutant kcat/KM; quantity = relative catalytic efficiency; value = 26
SMILES = CCCCC/C=C\C/C=C\C/C=C\C/C=C\CCCC(=O)NC(CO)C(=O)O (stereo in doubt); target = KCNQ3/KCNQ2; test = two-electrode voltage clamp; test system = Xenopus oocytes; setting = 1 µM; quantity = maximal conductance increase; value = 20 ± 4%
SMILES = CN(C)C(=O)[C@H]1NC(=O)c2cnccc2-c2ccc(cc2)C(F)(F)CCCC(F)(F)c2cccc1c2; target = NKG2-D type II integral membrane protein, with ULBP6 (KLRK1, Homo sapiens, UniProt P26718); test = ligand binding, inhibitor, TR-FRET; test system = HEK293 expressing NKG2D and DAP10; setting = together with: ULBP6-AF647; how to read = reference: positive control; quantity = maximum inhibition; value = 96%
SMILES = Cn1cc(-c2cccc(CN3CCC4(CC3)COc3c4ccc4c3CN([C@H]3CCC(=O)NC3=O)C4=O)c2)cn1; target = Ikzf2/Crbn (Mus musculus, UniProt P81183+Q8C7D2, I391V); test system = mouse Crbn I391V, spleen; setting = oral, 30 mg/kg single dose, 6 h; quantity = degradation; value = 84%
SMILES = CN(C)C(=O)C(NC(=O)c1ccccc1-c1ccc(C(F)(F)F)cc1)c1cccc(C(F)(F)F)c1 (stereo not shown); target = NKG2-D type II integral membrane protein (KLRK1, Homo sapiens, UniProt P26718); test = binding, SPR; quantity = association rate constant; value = 144 M⁻¹ s⁻¹
SMILES = C[C@H](NC(=O)[C@H](Cc1ccccc1)NC(=O)c1ccc(Br)cc1)C(=O)N[C@H](C(=O)N[C@@H](CCCC[N+](C)(C)C)C(=O)N[C@@H](CO)C(N)=O)C1CCCC1; target = Chromobox protein homolog 1 (Homo sapiens, UniProt P83916); test = competitive fluorescence polarization; how to read = reference: CBX7 over Chromobox protein homolog 1; quantity = selectivity ratio; value = 36 fold
SMILES = O=C(N[C@H]1CCOC1=O)c1cccc(-n2cc(C3CCCCC3)nn2)c1; target = lasR; test = reporter gene, agonist; test system = Escherichia coli DH5α pJN105L/pSC11; setting = 10 µM; how to read = reference: OdDHL 100 µM; quantity = activation; value = 0%
